Measurements from different studies.
Each line is one published result; not all experiments were run side by side. Values joined by “and” are separate records of one study, mostly repeats; a detail may differ. ± gives the spread as reported.

Substance | tested on | assay | system | setting | how to read | endpoint | result
CCCC[C@@H]1NC(=O)[C@@H](CC(C)C)NC(=O)[C@H](CCCCNC(=O)CN2CCN(CC(=O)O)CCN(CC(=O)O)CC2)NC(=O)NNC(=O)[C@H](Cc2c[nH]cn2)NC(=O)[C@@H](Cc2c[nH]c3ccccc23)NC1=O [copper-64 labelled] | – | – | Balb/c mice, spleen | intravenous, dose not given | – | tissue uptake | 1.8 ± 1.1 %ID/g
C(=N\Nc1nc(Nc2ccccc2)nc(N2CCOCC2)n1)/c1c[nH]c2ccccc12 | Trypanosoma cruzi | reporter mRNA translation, inhibitor, item: Renilla luciferase mRNA | cell-free extract | concentration not given, test 2 | relative to: positive over negative control | translation activity | 114% and 91.6%
CC(C)C[C@H](NC(=O)[C@@H](CCCCNC(=O)[C@@H](Cc1ccccc1)NC(=O)CCCCCNC(=O)CN1CCN(CC(=O)O)CCN(CC(=O)O)CCN(CC(=O)O)CC1)NC(=O)[C@H](Cc1ccc(O)cc1)NC(=O)[C@H](CO)NC(=O)[C@H](Cc1c[nH]c2ccccc12)NC(=O)[C@H](Cc1c[nH]cn1)NC(=O)[C@@H]1CCC(=O)N1)C(=O)N[C@@H](CCCNC(=N)N)C(=O)N1CCC[C@H]1C(=O)NCC(N)=O [indium-111 labelled] | – | – | female athymic nude mice, tumor | intravenous, 0.037 MBq, 4 h | – | tissue uptake | 0.15 ± 0.03 %ID/g
Nc1nc2nn[nH]c2c(=O)[nH]1 | Trypanosoma cruzi | reporter mRNA translation, inhibitor, item: Renilla luciferase mRNA | cell-free extract | concentration not given, test 2 | relative to: positive over negative control | translation activity | 101%
N=C(N)NCCC[C@@H]1NC(=O)[C@H](CCCCNC(=S)Nc2ccc(CC3CN(CC(=O)O)CCN(CC(=O)O)CCN(CC(=O)O)CCN3CC(=O)O)cc2)NC(=O)[C@@H](Cc2ccc(O)cc2)NC(=O)[C@H](CC(=O)O)NC(=O)CNC1=O (stereo partly drawn) [actinium-225 labelled] | – | – | mice with U-87 MG tumour, tumour | – | – | effective half-life | 69.4 h
C=C1CC[C@H](OCCCNC(=O)CCOCCOCCOCCOCCOCCOCCOCCOCCOCCOCCOCCOCCOCCOCCOCCOCCOCCOCCOCCOCCOCCOCCOCCOCCOCCOCCOCCOCCOCCOCCOCCOCCOCCOCCOCCOCCNC(=O)CCN2C(=O)CC(SC[C@H](NC(=O)[C@H](Cc3ccccc3)NC(=O)[C@H](CC(N)=O)NC(=O)[C@H](Cc3c[nH]cn3)NC(=O)[C@@H](NC(=O)[C@H](CC(=O)O)NC(=O)[C@H](CCC(N)=O)NC(=O)[C@H](CC(C)C)NC(=O)[C@H](CCCCN)NC(=O)[C@H](CCCCN)NC(=O)[C@H](CCCNC(=N)N)NC(=O)[C@H](CC(C)C)NC(=O)[C@H](Cc3c[nH]c4ccccc34)NC(=O)[C@H](CCC(=O)O)NC(=O)[C@@H](NC(=O)[C@H](CCCNC(=N)N)NC(=O)[C@H](CCC(=O)O)NC(=O)[C@H](CCSC)NC(=O)[C@H](CO)NC(=O)[C@H](CC(N)=O)NC(=O)[C@H](CC(C)C)NC(=O)[C@H](Cc3c[nH]cn3)NC(=O)[C@H](CCCCN)NC(=O)CNC(=O)[C@H](CC(C)C)NC(=O)[C@H](CC(N)=O)NC(=O)[C@H](Cc3c[nH]cn3)NC(=O)[C@H](CCSC)NC(=O)[C@H](CC(C)C)NC(=O)[C@H](CCC(N)=O)NC(=O)[C@@H](NC(=O)[C@H](CCC(=O)O)NC(=O)[C@H](CO)NC(=O)[C@@H](NC(=O)[C@@H](N)CO)C(C)C)[C@@H](C)CC)C(C)C)C(C)C)C(=O)O)C2=O)C/C1=C/C=C1\CCC[C@]2(C)[C@@H]([C@H](C)CCCC(C)(C)O)CC[C@@H]12 (stereo partly drawn) | – | – | male cynomolgus monkey, plasma | subcutaneous, 0.02 mg/kg, single dose | – | MRT | 23.3 h
nucleophosmin S112E | – | far-UV CD, CDSSTR | Tris buffer, NaCl | pH 7.5, room temperature | – | unstructured content | 67%
N=C(N)NCCC[C@@H]1NC(=O)[C@H](CCCCNC(=O)CC[C@H](NC(=O)CN2CCN(CC(=O)O)CCN(CC(=O)O)CCN(CC(=O)O)CC2)C(=O)NCCCC[C@@H]2NC(=O)[C@@H](Cc3ccccc3)NC(=O)[C@H](CC(=O)O)NC(=O)CNC(=O)[C@H](CCCNC(=N)N)NC2=O)NC(=O)[C@@H](Cc2ccccc2)NC(=O)[C@H](CC(=O)O)NC(=O)CNC1=O [indium-111 labelled] | – | – | female BALB/c nude mice, U-87 MG xenograft, blood | intravenous, dose not given, 4 h | – | blood radioactivity | < 0.05 %ID/g
CCCC[C@@H]1NC(=O)[C@@H](CC(C)C)NC(=O)[C@H](CCCCNC(=O)CN2CCN(CC(=O)O)CCN(CC(=O)O)CC2)NC(=O)[C@@H](CO)NC(=O)[C@H](Cc2c[nH]cn2)NC(=O)[C@@H](Cc2c[nH]c3ccccc23)NC1=O [copper-64 labelled] | – | – | Balb/c mice, muscle | intravenous, dose not given | – | tissue uptake | 0.09 ± 0.01 %ID/g
Cc1cc(-c2ccc(NC(=O)CC[C@H](NC(=O)CN3CCN(CC(=O)O)CCN(CC(=O)O)CCN(CC(=O)O)CC3)C(=O)NCC(=O)N[C@@H](CC(N)=O)C(=O)N[C@H](C(=O)N[C@H](C(=O)N[C@@H](CCCNC(=N)N)C(=O)N[C@@H](CCC(N)=O)C(=O)O)C(C)C)C(C)C)c(C)c2)ccc1/N=N/c1ccc2c(S(=O)(=O)O)cc(S(=O)(=O)O)c(N)c2c1O [copper-64 labelled] | – | – | nude mice, muscle | intravenous, 1 h | – | tissue uptake | 2.61 ± 0.44 %ID/g
CC(C)C[C@H](NC(=O)[C@H](Cc1ccc(O)cc1)NC(=O)[C@@H](CCCNC(=N)N)NC(=O)[C@@H](CO)NC(=O)[C@H](Cc1ccccc1)NC(=O)[C@H](CC1CCCCC1)NC(=O)[C@H](CC(=O)O)NC(=O)CN1CCN(CC(=O)O)CCN(CC(=O)O)CCN(CC(=O)O)CC1)C(=O)N[C@@H](Cc1c[nH]c2ccccc12)C(=O)N[C@@H](CO)C(=O)O [copper-64 labelled] | – | – | human, muscle | concentration not given, 3 h | – | activity concentration | 771 Bq/mL and 1480 Bq/mL and 580 Bq/mL and 727 Bq/mL and 721 Bq/mL and 674 Bq/mL
CCCC[C@H](NC(=O)CCCCCCCNC(=O)CN1CCN(CC(=O)O)CCN(CC(=O)O)CC1)C(=O)N[C@H]1CC(=O)NCCCC[C@@H](C(N)=O)NC(=O)[C@H](Cc2c[nH]c3ccccc23)NC(=O)[C@H](CCCNC(=N)N)NC(=O)[C@@H](Cc2ccccc2)NC(=O)[C@H](Cc2c[nH]cn2)NC1=O [technetium-99m labelled] | – | – | C57 mouse, bone | intravenous, 0.037 MBq, 2 h | – | tissue uptake | 0.02 ± 0.01 %ID/g

Excerpt of the above:
Substance | tested on | assay | system | setting | how to read | endpoint | result
Nc1nc2nn[nH]c2c(=O)[nH]1 | Trypanosoma cruzi | reporter mRNA translation, inhibitor, item: Renilla luciferase mRNA | cell-free extract | concentration not given, test 2 | relative to: positive over negative control | translation activity | 101%
